Published values collected from several papers.
Compare with care: the assays were run in different laboratories. ± gives the spread as reported.
Cell line: MRC5

Structure (SMILES) | observed | technique | medium | tested at | time | endpoint | value
CC(C)=CCc1c(OCC2OC2(C)C)ccc2ccc(=O)oc12 (stereo not drawn) | cell growth or viability | MTT |  |  | 24 h | IC50 | > 100 µM
CN1CCCN(c2cnc3c(cc(C(=O)NCc4ccc(Cl)cc4)c(=O)n3CC(=O)N3CC(C)(F)C3)n2)C1=O | cell growth or viability | CCK-8 |  |  |  | CC50 | > 40 µM
N=C(N)NCCC[C@@H]1NC(=O)[C@H](CCCNC(=N)N)NC(=O)[C@@H](CCCNC(=N)N)NC(=O)[C@H](C(c2ccccc2)c2ccccc2)NC(=O)[C@H](C(c2ccccc2)c2ccccc2)NC(=O)[C@H](C(c2ccccc2)c2ccccc2)NC(=O)[C@H](CCCNC(=N)N)NC1=O | cell growth or viability | MTS |  | 150 µg/mL | 24 h | viability | 61 to 70%
CC1(F)CN(C(=O)Cn2c(=O)c(C(=O)NCc3ccc(Cl)cc3)cc3nc(N4CCN(CCN)C4=O)cnc32)C1 | cell growth or viability |  |  |  |  | CC50 | > 40 µM
CC(C)C(=O)Cc1c(OCC(O)C(C)(C)O)ccc2ccc(=O)oc12 (stereo not drawn) | cell growth or viability | MTT |  |  | 24 h | IC50 | > 100 µM
N=C(N)NCCC[C@@H]1NC(=O)[C@H](CCCNC(=N)N)NC(=O)[C@@H](CCCNC(=N)N)NC(=O)[C@@H](CCCNC(=N)N)NC(=O)[C@@H](C(c2ccccc2)c2ccccc2)NC(=O)[C@H](Cc2c[nH]c3ccccc23)NC(=O)[C@@H](C(c2ccccc2)c2ccccc2)NC1=O | cell growth or viability | MTS |  | 100 µg/mL | 24 h | viability | > 90%
Cc1cccnc1-c1csc(C(=O)Nc2cc(Cl)cc(NS(C)(=O)=O)c2)c1 | cell growth or viability | ATP luminescence |  |  | 10 days | CC50 | 3.25 µM
CC(=O)N(C)CCN1CCN(c2cnc3c(cc(C(=O)NCc4ccc(Cl)cc4)c(=O)n3CC(=O)N3CC(C)(F)C3)n2)C1=O | cell growth or viability | CCK-8 |  | 40 µM |  | viability | 99%
O=C1C(Cl)=C(Cl)C(=O)c2c(O)ccc(O)c21 | cytotoxicity | MTT | RPMI-1640 with 10% FBS |  | 48 h | IC50 | 10.4 ± 0.45 µM

Some of these lines once more:
Structure (SMILES) | observed | technique | medium | tested at | time | endpoint | value
O=C1C(Cl)=C(Cl)C(=O)c2c(O)ccc(O)c21 | cytotoxicity | MTT | RPMI-1640 with 10% FBS |  | 48 h | IC50 | 10.4 ± 0.45 µM
